Experimental data of several laboratories.
A part holds a random share of what one study measured. Changes are numbered by the printed parent chain.

Block 1
Target: Sal-like protein 4, full length isoform B (SALL4, Homo sapiens, UniProt Q9UJQ4-2, residues 1-616)
Technique: universal PBM
Form: double-stranded DNA, one strand shown
Medium: in vitro
Concentration: not given
Notes: 8-mer, flanks averaged, mean of replicates
Direction: higher = stronger binding
Target sequence (chain): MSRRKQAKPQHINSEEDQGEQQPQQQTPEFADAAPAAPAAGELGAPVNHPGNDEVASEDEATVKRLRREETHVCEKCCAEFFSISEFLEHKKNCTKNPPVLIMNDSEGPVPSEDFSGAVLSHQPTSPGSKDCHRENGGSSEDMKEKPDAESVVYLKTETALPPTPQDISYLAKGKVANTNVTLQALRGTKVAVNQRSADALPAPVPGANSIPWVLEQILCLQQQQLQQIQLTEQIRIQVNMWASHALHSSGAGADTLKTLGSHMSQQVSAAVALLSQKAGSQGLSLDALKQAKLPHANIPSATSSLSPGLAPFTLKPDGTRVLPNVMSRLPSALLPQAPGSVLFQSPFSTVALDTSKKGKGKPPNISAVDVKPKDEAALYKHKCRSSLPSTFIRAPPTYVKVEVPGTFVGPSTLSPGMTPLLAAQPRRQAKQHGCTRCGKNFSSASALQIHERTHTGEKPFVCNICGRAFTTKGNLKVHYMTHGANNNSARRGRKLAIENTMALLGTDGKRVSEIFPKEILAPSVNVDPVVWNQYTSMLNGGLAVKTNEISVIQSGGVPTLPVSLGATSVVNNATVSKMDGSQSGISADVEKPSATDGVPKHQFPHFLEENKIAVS
`AGCAAGGA` gave an E-score of -0.0857.
For `AAACCCGG`, the E-score was -0.269.
For `GGGTTTTA`, the E-score was -0.00559.
With `ATCGGCAG` the E-score was -0.0993.
`GGGTAGAA` gave an E-score of -0.0139.
`ACGATCGA` has an E-score of 0.0483.
For `GAGAACTC`, the E-score was -0.162.
`CCGGGGTA` gave an E-score of -0.173.
`ATATCGGA` has an E-score of 0.242.
The E-score of `AGGTTCTG` is reported as -0.027.
With `CGAAGGAG` the E-score was -0.193.
The E-score of `CGTACATA` is reported as 0.25.
With `ACACTTAC` the E-score was 0.243.
With `CCACTCAA` the E-score was 0.0634.
The E-score of `ACAGCTTG` is reported as -0.136.
The E-score of `CAGTCAGG` is reported as -0.144.
The E-score of `GCGATTAA` is reported as 0.0899.
For `TAACATTA`, the E-score was 0.375.
`AGACCTTG` gave an E-score of 0.0162.
`GAAGAAAA` has an E-score of 0.198.
For `GATCCATA`, the E-score was 0.307.
`CTCAACTC` gave an E-score of -0.0506.
`ATTTTATC` has an E-score of 0.317.
With `AGGTGGAC` the E-score was -0.234.

Block 2
Target: Ras GTPase-activating protein-binding protein 1, full length (G3BP1, Homo sapiens, UniProt Q13283)
Chain of UniProt Q13283 (whole entry, looked up): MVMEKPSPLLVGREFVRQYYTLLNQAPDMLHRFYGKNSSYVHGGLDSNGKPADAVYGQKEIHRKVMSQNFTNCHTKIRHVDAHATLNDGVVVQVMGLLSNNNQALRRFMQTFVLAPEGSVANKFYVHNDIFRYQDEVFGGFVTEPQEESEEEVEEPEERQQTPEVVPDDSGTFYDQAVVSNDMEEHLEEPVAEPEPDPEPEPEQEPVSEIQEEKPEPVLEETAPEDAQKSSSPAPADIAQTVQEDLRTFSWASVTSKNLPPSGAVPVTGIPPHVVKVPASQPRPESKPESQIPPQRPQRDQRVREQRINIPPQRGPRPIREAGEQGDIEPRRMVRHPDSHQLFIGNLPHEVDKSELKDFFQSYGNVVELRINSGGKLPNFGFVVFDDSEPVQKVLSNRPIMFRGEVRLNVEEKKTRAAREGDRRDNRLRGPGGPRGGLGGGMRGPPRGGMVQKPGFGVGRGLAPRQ
Technique: RNA Bind-n-Seq
Form: RNA
Medium: in vitro
Concentration: 200 nM
Notes: whole 134-nt RNA, ends assumed
Together with: 150 mM KCl
Relative to: input library
Direction: higher = stronger binding
The log2 enrichment of `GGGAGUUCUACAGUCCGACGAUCUCCUGUGCUACACAUCGUAUGUACCGAAUCGGGGUUUGGGGUUUUUUUGGGGAAAGGGGAAAGUAUUAUGUUACGCCGUUCGGAUCUGCAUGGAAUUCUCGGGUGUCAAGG` is reported as 1.05.
`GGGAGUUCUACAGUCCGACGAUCAGUCCUGUGCUACACAUCGUAUGUACCGAAUCGGGAAAGGGUUUUUGGGAAAAAGGGAAAGUAUUAUGUUACGCCGUUCGGAUCUGCACUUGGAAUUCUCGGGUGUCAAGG` gave a log2 enrichment of -0.403.
For `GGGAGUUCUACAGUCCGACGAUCUUUAGGUGUUAGACGGUACCGACAACCAGUAUUUGGGCCUGCAGAUUGGACAGCCCCAGGAUGAAGAUGAGGAAGCCACAGGUAUUCUUCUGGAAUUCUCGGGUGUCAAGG`, the log2 enrichment was -2.02.
The log2 enrichment of `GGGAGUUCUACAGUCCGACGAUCUUUUAAAGUGUUCUCCACCACACUUGGGCAUUUAUCUGUUUCUUUAAAUGGCCUUCUCUGUUUCUUGUUUGCAGGCAGCUAUCAAUGGUGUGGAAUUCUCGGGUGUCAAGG` is reported as 0.162.
`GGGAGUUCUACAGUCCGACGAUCACCAUGCAGGUGGGCAUCUUUGGGAAGUGGGGCAAGGGUGGGAUAGGGAGGGGGGUAACACUUUGGGAACAGGUGGUCCCAGGUCGUUUCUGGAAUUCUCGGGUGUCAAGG` gave a log2 enrichment of 0.969.
`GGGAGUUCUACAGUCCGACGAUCUGGGAGGUGGAUUUUGUUUAUUUUUUUAGCUCAUUUCCAGGGGUGGGAAUUUUUUUUUAAUAUGUGUCAUGAAUAAAGUUGUUUUUGAAUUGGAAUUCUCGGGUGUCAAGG` gave a log2 enrichment of 0.371.
With `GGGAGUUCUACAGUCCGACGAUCCCUGUGCUACACAUCGUAUGUACCGAAUCGGGAAAAAAAGGGAAAAAGGGAAAAAAAGGGAAAGUAUUAUGUUACGCCGUUCGGAUCUGCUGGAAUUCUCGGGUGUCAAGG` the log2 enrichment was -0.807.
For `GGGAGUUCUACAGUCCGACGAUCAGUCCUGUGCUACACAUCGUAUGUACCGAAUCGGGGAAAAAGGGGUGGGGAAAGGGGAAAGUAUUAUGUUACGCCGUUCGGAUCUGCACUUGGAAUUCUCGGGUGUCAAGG`, the log2 enrichment was 0.186.
With `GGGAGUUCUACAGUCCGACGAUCGCAGGAAGUAAAAACAAAUGGAAAUGCUUCGGAUAGUAGCAGGGGUGGGGGUUGCUAAGGAAAGGGUGGGAUGGGAGUGGGUAAAGAGUUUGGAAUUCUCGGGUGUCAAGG` the log2 enrichment was 0.724.

Block 3
Target: CCNB1, cyclin fold, Cln2 fusion (human)
Technique: yeast growth competition, sequencing
Medium: yeast
Notes: weak parent motif
Relative to: not given
Direction: higher = stronger binding
Parent: REPIN1 docking peptide (human); QSFRGWVALVLHL
`QSARGWVALVLHL [F3A]`: “normalised enrichment score” 0.211.
Under “normalised enrichment score”, `QSFRGWVALVLAL [H12A]` is recorded as 0.445.
Under “normalised enrichment score”, `ASFRGWVALVLHL [Q1A]` is recorded as 0.322.
`QSFRAWVALVLHL [G5A]` — result for “normalised enrichment score”: 0.893.
Under “normalised enrichment score”, `QSFAGWVALVLHL [R4A]` is recorded as 0.484.
`QSFRGWAALVLHL [V7A]`: “normalised enrichment score” 0.835.

Block 4
Target: RING finger protein unkempt homolog, zinc fingers 1-6, GST-SBP tag (UNK, Homo sapiens, UniProt Q9C0B0, residues 30-357)
Technique: RNA Bind-n-Seq
Form: RNA
Medium: in vitro
Concentration: not given
Notes: RNA with constant flanks, human and mouse sites, ends assumed
Relative to: input RNA pool
Direction: higher = stronger binding
Construct (chain): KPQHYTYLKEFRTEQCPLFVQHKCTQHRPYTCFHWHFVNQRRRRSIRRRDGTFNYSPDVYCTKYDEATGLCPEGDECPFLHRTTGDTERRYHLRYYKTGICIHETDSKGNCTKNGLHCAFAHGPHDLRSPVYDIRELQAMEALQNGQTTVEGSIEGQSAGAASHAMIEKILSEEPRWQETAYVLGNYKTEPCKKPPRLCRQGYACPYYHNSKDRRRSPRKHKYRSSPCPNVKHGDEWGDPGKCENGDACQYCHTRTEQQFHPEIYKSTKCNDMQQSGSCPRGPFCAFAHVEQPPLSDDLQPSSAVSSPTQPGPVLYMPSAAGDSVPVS
With `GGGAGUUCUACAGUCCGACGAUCGUGAGCUGUGUGCCUUGUUUGGGGGGUGUGGGGGACUUCUCCCAGUGGUGACACUGAACUUUAGGAGAAAAUGCGAAUGGGUAGGAGGACGGUCUUAUUUGAGUCACUUAAGGAGCAAGGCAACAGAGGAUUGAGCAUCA` the bound/input enrichment was 1.46 ratio.
`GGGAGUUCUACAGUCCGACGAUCUUCUUUCCCUUUUUCUUUCAGAGCUGUUGCGCAGCCAUUGGUACCUGUAUUGGGGAAACAUAGCAUACAAGCAAGAAGCUUACAGCCUCAGUGGCGAAAAUUUUUUCAUGUCAGAGACCGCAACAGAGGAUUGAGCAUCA` gave a bound/input enrichment of 0.423 ratio.
For `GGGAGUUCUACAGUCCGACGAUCAUACCAACUGAGGUGGCUAUAGAGUCCACACCAAUGAUACUGGAAUCUAGUAUCAUGUCAUCACAUGUUAUGAAAGGAAUUAAUCUAUCCUCUGGUGAUCAAAAUCUUGCUCCAGAGAUUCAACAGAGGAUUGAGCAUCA`, the bound/input enrichment was 0.0982 ratio.
`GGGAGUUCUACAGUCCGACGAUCGGAGCCACCCCUCCUCUUACGUCUGUACCUUGAAAGCUGCUGCUGCUGCUUACAGAAUUAUAUUUUUUUCUUUUGAAGAGUUUUAAGAAGUUGUAACUUUUUGUGUCUUGUCAUGUAAAACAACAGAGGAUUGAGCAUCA` gave a bound/input enrichment of 0.628 ratio.
With `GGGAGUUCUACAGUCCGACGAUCCAUCUGUAAGCAGUGUGGCCUCUCUGCAGAGGUGGCAGACGUGAUUAGAACUGUGUGUGUCUUAGAGGUGACAGUGUUUAUAGCUUAUUAAAUAGUUGAUACAGAUGCCCUUAUGAAAACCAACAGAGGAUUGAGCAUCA` the bound/input enrichment was 5.34 ratio.
With `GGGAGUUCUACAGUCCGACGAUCUAUUCUUCAGCUACCAGUGAAUGGAGGCUAAGCUAUGUCAAUAAGGAAUUUGCUGUCUGUCCCUCUUACCCACCAAUUGUCACAGUGCCCAAAUCCAUCGAUGAUGAAGCUCUUCGGAAGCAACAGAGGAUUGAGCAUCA` the bound/input enrichment was 0.146 ratio.
`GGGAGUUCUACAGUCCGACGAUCAAUAUGGCCAAGCAGAUCGGAGCAGCCACUUACAUAGAAUGCUCAGCUUUACAGUCAGAAAACAGCGUCAGAGACAUUUUUCACGUCGCCACCUUGGCGUGUGUAAAUAAGACAAAUAAACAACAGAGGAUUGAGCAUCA` has a bound/input enrichment of 0.237 ratio.
`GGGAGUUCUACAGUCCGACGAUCCACAAGAAGCGGAUCCAGGAAGUUGGUGAACCAUCUAAAGAAGAGAAGGCUGUGGCCAAGUAUCUUCGAUUCAACUGUCCAACAAAGUCCACCAAUAUGAUGGGUCACCGGGUUGAUUAUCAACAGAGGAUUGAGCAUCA` has a bound/input enrichment of 0.114 ratio.

Other studies, line by line
The fold induction of `PhoQ, residues 284 288 289 292 302 303 DDMDFR` is reported as 0.761 (PhoP, residues 12 14 15 18 19 TQAIL (Escherichia coli, UniProt P23836); Sort-seq, refers to: YFP reporter; E. coli; PhoQ-PhoP variant library, together with: 10 µM Mg2+; relative to: high Mg2+ state, higher = stronger signaling).

Some of these lines once more (block 1):
`AGACCTTG` gave an E-score of 0.0162.
With `CGAAGGAG` the E-score was -0.193.
For `GATCCATA`, the E-score was 0.307.
`ATATCGGA` has an E-score of 0.242.
For `GAGAACTC`, the E-score was -0.162.
The E-score of `ACAGCTTG` is reported as -0.136.
With `ATCGGCAG` the E-score was -0.0993.
For `TAACATTA`, the E-score was 0.375.
